Experimental data pooled from the literature.
A part holds a random share of what one study measured.
Chain of UniProt Q02750 (whole entry, looked up): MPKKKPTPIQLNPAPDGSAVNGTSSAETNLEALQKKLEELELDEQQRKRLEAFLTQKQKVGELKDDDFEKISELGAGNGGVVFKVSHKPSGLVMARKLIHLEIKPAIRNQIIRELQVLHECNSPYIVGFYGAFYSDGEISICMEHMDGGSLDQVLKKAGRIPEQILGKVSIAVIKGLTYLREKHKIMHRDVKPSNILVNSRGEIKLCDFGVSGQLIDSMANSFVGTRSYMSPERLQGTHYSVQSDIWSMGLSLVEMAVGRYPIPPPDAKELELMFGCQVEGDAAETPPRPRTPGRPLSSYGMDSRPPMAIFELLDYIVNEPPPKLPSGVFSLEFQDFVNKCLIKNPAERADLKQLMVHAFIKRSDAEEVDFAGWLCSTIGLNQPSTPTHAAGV
Chain of UniProt P00519 (whole entry, unmodified, looked up): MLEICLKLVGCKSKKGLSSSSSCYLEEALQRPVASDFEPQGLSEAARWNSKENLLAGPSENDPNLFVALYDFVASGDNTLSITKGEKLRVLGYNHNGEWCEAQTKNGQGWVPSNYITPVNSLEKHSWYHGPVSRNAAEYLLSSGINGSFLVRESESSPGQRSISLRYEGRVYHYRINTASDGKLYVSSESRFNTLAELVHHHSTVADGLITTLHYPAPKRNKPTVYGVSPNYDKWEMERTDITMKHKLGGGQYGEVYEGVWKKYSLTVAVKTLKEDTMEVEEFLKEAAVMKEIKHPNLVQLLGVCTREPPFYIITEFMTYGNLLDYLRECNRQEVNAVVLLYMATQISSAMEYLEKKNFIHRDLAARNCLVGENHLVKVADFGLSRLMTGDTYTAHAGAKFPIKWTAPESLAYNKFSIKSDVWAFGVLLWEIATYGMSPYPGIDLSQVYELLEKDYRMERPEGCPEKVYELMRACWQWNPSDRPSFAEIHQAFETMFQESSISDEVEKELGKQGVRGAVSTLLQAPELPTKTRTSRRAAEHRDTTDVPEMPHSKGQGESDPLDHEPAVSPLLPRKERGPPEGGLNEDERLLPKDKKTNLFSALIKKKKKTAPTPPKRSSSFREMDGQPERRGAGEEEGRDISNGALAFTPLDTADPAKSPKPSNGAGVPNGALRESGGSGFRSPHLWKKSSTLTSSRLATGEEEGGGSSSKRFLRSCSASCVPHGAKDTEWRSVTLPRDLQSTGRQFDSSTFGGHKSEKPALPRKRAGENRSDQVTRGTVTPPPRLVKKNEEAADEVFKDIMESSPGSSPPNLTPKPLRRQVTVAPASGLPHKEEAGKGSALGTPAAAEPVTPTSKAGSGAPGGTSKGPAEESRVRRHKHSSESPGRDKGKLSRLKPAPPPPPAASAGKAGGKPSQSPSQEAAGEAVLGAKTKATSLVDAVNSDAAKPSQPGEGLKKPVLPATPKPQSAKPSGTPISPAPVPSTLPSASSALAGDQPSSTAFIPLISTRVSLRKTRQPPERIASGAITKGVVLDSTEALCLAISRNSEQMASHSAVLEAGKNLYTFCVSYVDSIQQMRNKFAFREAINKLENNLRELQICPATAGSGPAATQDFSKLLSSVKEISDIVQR
Chain of UniProt O00238 (whole entry, looked up): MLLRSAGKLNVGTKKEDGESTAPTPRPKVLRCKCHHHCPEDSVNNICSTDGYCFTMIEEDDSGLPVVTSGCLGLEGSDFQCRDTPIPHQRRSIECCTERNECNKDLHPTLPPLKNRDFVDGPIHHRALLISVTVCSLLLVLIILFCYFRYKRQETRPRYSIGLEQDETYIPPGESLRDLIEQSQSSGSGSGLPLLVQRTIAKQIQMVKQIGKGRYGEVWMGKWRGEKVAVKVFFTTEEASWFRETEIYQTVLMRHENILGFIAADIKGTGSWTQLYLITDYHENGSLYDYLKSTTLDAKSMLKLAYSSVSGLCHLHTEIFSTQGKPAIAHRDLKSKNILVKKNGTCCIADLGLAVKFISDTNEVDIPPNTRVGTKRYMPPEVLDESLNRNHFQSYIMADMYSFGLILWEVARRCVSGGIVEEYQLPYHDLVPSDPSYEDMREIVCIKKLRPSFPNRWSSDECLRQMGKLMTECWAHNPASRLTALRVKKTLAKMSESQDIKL
Chain of UniProt Q15375 (whole entry, looked up): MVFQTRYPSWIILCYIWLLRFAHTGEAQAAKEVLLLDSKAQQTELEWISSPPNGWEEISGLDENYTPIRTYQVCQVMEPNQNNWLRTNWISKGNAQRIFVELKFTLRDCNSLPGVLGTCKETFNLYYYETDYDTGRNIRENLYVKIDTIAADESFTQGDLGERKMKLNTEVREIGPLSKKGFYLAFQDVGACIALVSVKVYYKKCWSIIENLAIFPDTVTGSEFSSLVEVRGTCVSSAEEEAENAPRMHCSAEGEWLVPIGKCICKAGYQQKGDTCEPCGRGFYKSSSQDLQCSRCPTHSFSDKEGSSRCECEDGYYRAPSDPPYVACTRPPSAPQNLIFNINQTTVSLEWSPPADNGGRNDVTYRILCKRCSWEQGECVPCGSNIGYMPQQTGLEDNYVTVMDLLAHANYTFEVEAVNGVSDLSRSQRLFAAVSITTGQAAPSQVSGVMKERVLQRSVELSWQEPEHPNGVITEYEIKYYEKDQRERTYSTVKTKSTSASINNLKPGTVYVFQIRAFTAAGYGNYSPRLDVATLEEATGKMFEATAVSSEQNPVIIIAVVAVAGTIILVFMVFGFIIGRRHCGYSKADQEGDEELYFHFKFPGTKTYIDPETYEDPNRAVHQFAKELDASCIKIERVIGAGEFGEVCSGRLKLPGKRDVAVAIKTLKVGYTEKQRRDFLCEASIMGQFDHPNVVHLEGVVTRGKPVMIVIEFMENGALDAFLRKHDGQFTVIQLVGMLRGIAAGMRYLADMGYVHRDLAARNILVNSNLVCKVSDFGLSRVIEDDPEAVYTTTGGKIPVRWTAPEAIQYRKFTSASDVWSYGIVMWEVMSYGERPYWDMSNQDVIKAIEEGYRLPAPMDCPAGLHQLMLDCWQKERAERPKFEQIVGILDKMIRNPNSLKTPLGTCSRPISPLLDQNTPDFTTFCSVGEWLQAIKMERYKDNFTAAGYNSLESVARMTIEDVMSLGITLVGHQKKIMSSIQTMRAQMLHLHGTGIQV
Chain of UniProt P07947 (whole entry, looked up): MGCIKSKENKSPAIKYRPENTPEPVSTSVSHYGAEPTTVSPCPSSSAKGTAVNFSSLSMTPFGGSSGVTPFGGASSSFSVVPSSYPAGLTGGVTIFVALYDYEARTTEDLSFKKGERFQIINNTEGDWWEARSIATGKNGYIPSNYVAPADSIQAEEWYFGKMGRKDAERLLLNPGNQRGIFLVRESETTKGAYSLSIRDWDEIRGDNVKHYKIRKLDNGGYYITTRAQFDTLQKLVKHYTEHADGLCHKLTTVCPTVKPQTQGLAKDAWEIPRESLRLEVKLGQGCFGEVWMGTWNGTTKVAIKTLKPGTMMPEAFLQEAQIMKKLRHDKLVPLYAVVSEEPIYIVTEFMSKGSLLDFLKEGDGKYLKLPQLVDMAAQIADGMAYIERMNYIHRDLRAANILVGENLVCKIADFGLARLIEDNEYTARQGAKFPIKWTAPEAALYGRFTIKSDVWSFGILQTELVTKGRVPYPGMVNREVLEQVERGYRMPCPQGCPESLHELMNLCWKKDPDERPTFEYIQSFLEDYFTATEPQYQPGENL
Chain of UniProt P42336 (whole entry, unmodified, looked up): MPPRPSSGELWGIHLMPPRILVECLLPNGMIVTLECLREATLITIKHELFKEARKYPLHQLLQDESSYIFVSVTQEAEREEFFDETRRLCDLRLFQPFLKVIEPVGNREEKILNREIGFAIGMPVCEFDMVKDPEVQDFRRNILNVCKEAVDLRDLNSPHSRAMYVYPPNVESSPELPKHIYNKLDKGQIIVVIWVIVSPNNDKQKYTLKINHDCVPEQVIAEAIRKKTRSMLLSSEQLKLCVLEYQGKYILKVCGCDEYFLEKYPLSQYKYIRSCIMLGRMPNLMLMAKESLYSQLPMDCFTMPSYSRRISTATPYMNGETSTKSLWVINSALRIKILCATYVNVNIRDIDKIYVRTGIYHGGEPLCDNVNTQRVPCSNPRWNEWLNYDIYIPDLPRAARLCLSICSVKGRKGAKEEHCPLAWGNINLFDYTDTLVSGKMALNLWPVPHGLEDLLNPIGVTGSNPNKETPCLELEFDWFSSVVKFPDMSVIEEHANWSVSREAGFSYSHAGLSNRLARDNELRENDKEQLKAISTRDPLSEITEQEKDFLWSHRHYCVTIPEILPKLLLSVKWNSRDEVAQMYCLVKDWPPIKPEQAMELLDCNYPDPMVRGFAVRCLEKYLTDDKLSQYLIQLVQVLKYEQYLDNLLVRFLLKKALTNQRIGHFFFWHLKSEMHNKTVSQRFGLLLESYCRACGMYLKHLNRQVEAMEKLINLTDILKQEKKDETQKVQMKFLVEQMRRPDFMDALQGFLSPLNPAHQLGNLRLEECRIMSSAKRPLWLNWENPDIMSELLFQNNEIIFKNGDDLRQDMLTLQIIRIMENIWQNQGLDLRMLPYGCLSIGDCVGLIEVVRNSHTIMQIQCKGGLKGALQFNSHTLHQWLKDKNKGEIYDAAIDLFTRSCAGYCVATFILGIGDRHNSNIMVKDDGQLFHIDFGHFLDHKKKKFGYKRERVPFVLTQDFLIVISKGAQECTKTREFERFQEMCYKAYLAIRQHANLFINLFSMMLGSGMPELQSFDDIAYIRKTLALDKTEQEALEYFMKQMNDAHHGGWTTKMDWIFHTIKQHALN
Chain of UniProt Q9UQB9 (whole entry, looked up): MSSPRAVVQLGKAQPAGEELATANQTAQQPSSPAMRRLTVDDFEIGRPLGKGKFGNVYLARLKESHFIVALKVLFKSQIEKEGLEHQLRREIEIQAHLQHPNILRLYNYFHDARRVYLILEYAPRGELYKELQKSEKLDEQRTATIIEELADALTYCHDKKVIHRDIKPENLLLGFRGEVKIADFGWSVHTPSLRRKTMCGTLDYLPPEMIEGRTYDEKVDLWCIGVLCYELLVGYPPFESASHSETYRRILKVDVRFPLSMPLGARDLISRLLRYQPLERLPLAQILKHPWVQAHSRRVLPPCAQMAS

Study 1 — concentration: 1 µM; quantity: remaining binding
SMILES: CCc1ccccc1C(=O)Nc1n[nH]c2c(C)c(F)c(C3C(C#N)=C(C)N(C)C(C)=C3C#N)cc12
Ephrin type-A receptor 7 (EPHA7, Homo sapiens, UniProt Q15375); cell-free assay, competition with immobilised ligand: 81%
Mitogen-activated protein kinase kinase kinase 4 (MAP3K4, Homo sapiens, UniProt Q9Y6R4); cell-free assay, competition with immobilised ligand: 72%
Hepatocyte growth factor receptor (MET, Homo sapiens, UniProt P08581, Y1235D); cell-free assay, competition with immobilised ligand: 16%
Tyrosine-protein kinase ABL1, non-phosphorylated (ABL1, Homo sapiens, UniProt P00519, F317L); cell-free assay, competition with immobilised ligand: 100%
Myosin light chain kinase family member 4 (MYLK4, Homo sapiens, UniProt Q86YV6); cell-free assay, competition with immobilised ligand: 100%
Phosphatidylinositol 4,5-bisphosphate 3-kinase catalytic subunit alpha isoform (PIK3CA, Homo sapiens, UniProt P42336, E542K); cell-free assay, competition with immobilised ligand: 54%
Aurora kinase C (AURKC, Homo sapiens, UniProt Q9UQB9); cell-free assay, competition with immobilised ligand: 29%
MAP kinase-interacting serine/threonine-protein kinase 2 (MKNK2, Homo sapiens, UniProt Q9HBH9); cell-free assay, competition with immobilised ligand: 98%
Cyclin-dependent kinase 19 (CDK19, Homo sapiens, UniProt Q9BWU1); competition binding: 100%
Ribosomal protein S6 kinase alpha-6, C-terminal kinase domain (RPS6KA6, Homo sapiens, UniProt Q9UK32); cell-free assay, competition with immobilised ligand: 100%
Bone morphogenetic protein receptor type-1B (BMPR1B, Homo sapiens, UniProt O00238); cell-free assay, competition with immobilised ligand: 96%
Dual specificity mitogen-activated protein kinase kinase 1 (MAP2K1, Homo sapiens, UniProt Q02750); cell-free assay, competition with immobilised ligand: 100%
Epidermal growth factor receptor (EGFR, Homo sapiens, UniProt P00533, T790M); cell-free assay, competition with immobilised ligand: 100%

Study 2 — read-out: enzyme activity; mode: inhibitor; concentration: 0.5 µM; quantity: remaining activity
Structure (SMILES): Cc1cn(-c2cc(NC(=O)c3ccc(C)c(Nc4nccc(-c5cccnc5)n4)c3)cc(C(F)(F)F)c2)cn1
Tyrosine-protein kinase ABL2 (ABL2, Homo sapiens, UniProt P42684): 4.86%
Tyrosine-protein kinase Yes (YES1, Homo sapiens, UniProt P07947); baseline: control: 66.1%
Serine/threonine-protein kinase PAK 5 (PAK5, Homo sapiens, UniProt Q9P286); baseline: control: 97.7%

Study 3 — method: phase 2a clinical trial
SMILES: CC(C)n1cnc(-c2ccc(F)cc2)c1-c1ncc(C(=O)Nc2ccc(N3CCN(C)CC3)cc2)[nH]1
Species: patients with idiopathic pulmonary fibrosis
Quantity: patients with treatment-emergent adverse events
item: carbon dioxide decreased; dose not given, Grade 2, all drug arms total: 0%
item: metabolism and nutrition disorders (SOC); 30 mg once daily, Grade 4: 0%
item: lumbar vertebral fracture; 60 mg once daily, Grade 5, maximum intensity: 0%
item: gastro-oesophageal reflux disease; 60 mg once daily, Grade 4: 0%
item: gastro-oesophageal reflux disease; 30 mg once daily, Grade 4: 0%
item: C-reactive protein increased; 60 mg once daily, Grade 2: 0%
item: C-reactive protein increased; dose not given, Grade 5, all drug arms total: 0%
item: investigations (SOC); 30 mg once daily, Grade 3: 0%
item: idiopathic pulmonary fibrosis; dose not given, Grade 2, all drug arms: 0%
item: protein urine present; 60 mg once daily, Grade 4: 0%

Single results of other studies
COc1cc(C(=O)OCCCN2CCCN(CCCOC(=O)c3cc(OC)c(OC)c(OC)c3)CC2)cc(OC)c1OC  Hill slope (Equilibrative nucleoside transporter 2 (Homo sapiens, UniProt Q14542); adenosine uptake, inhibitor; Xenopus laevis oocytes; together with: [3H]adenosine): -0.856
